Measured values of several laboratories.
Each numbered part is a random draw from the data of one study; scales do not carry over between parts.
Sequence of UniProt P11362 (whole entry, looked up): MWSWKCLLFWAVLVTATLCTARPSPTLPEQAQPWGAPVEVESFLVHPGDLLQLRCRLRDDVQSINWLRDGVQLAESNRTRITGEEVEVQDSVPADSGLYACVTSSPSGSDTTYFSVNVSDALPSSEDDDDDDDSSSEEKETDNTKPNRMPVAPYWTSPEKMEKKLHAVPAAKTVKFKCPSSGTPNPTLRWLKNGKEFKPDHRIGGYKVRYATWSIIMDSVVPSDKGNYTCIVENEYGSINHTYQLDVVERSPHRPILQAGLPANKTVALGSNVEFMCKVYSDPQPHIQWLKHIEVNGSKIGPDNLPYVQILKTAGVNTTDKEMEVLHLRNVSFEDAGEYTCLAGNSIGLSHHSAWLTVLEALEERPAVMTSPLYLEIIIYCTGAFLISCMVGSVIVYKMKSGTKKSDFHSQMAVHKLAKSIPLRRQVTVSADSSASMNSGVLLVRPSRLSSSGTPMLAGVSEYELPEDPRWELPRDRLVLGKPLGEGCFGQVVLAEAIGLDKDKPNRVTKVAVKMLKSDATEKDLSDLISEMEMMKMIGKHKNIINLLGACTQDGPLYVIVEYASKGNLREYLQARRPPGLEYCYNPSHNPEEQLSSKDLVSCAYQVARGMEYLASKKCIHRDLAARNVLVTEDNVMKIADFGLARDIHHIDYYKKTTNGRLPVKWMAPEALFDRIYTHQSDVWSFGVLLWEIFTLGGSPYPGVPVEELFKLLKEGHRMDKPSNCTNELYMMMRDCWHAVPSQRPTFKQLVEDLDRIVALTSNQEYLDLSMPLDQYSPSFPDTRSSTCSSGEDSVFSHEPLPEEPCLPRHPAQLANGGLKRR
Sequence of UniProt Q15761 (whole entry, looked up): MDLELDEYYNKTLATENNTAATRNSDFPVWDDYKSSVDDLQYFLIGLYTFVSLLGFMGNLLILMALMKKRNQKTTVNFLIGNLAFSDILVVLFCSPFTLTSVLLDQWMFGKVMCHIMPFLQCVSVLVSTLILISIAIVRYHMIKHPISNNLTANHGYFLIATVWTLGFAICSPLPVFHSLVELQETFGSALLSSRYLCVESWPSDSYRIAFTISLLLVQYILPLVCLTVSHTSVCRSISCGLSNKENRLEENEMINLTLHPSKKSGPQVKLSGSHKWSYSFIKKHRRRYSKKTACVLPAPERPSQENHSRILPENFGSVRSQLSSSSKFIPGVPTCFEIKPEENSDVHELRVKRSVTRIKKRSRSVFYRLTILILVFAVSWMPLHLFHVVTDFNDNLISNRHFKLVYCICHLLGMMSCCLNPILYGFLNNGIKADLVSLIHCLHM
Sequence of UniProt Q15349 (whole entry, looked up): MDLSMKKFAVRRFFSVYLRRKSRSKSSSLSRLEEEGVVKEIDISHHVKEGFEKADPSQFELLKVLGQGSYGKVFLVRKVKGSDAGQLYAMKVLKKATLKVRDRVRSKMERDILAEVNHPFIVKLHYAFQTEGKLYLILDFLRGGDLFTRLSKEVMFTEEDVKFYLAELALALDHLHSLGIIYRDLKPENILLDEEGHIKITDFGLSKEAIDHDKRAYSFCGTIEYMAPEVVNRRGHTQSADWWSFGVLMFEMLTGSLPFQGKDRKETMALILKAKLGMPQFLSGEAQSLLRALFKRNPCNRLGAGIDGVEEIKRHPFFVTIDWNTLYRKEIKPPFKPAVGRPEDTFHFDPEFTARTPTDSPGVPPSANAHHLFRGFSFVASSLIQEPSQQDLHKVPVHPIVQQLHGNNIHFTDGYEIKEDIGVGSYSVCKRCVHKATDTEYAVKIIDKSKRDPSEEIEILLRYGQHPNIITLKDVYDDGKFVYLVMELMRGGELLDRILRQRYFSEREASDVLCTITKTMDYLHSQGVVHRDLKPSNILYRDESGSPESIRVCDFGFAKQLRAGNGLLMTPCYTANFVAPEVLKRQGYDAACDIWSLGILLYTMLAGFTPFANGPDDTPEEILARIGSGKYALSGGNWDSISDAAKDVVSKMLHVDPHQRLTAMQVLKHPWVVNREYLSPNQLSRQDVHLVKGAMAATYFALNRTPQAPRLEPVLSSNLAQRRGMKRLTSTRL
Sequence of UniProt P41597 (whole entry, looked up): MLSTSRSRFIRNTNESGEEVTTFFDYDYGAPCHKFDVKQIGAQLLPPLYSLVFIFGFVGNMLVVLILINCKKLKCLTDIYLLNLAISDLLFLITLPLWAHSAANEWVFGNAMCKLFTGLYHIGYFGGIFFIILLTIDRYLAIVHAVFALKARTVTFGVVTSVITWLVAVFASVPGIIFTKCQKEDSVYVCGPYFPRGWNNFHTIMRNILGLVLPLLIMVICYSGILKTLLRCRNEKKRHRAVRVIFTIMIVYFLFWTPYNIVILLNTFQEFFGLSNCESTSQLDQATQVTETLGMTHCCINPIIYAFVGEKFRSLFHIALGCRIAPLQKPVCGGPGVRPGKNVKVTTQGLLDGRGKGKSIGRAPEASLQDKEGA
Sequence of UniProt Q9UHD2 (whole entry, looked up): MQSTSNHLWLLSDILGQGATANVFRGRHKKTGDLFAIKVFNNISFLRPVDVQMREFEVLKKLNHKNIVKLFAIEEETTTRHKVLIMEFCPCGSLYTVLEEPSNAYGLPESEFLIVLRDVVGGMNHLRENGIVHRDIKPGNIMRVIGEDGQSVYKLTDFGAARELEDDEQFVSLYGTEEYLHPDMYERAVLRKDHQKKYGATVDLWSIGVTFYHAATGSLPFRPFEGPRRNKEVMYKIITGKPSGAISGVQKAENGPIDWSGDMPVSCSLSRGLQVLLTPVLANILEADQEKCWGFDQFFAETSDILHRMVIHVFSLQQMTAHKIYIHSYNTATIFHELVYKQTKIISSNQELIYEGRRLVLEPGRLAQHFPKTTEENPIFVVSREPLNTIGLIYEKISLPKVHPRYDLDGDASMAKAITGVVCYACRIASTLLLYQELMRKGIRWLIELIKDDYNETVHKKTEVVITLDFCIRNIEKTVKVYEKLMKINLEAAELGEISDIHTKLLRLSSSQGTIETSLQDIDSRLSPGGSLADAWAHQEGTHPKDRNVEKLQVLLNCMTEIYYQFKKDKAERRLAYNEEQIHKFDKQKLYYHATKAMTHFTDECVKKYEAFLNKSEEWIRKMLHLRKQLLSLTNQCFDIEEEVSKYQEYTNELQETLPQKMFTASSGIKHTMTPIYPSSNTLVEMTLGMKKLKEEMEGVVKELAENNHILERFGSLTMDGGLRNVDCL
Sequence of UniProt Q16620 (whole entry, looked up): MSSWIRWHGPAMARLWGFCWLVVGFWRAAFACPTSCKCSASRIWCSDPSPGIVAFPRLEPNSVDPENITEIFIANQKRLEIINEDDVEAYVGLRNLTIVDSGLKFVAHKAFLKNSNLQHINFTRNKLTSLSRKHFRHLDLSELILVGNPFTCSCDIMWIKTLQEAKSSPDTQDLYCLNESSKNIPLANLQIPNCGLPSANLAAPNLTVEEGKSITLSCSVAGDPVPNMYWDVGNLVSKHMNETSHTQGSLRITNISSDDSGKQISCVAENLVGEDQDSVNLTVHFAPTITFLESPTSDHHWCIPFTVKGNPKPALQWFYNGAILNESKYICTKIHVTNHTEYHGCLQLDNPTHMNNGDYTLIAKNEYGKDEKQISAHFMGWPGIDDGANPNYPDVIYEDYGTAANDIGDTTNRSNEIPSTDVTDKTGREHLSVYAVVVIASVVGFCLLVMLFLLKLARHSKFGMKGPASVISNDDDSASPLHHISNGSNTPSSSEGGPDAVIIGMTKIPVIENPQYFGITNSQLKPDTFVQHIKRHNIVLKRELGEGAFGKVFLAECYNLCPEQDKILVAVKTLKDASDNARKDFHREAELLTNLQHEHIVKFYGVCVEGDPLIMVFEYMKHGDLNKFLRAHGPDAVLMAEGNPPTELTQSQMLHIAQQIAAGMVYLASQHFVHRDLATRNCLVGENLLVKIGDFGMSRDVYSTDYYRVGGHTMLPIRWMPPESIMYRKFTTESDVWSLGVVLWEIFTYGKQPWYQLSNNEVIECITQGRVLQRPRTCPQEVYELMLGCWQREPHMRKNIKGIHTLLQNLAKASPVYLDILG
Sequence of UniProt P21731 (whole entry, looked up): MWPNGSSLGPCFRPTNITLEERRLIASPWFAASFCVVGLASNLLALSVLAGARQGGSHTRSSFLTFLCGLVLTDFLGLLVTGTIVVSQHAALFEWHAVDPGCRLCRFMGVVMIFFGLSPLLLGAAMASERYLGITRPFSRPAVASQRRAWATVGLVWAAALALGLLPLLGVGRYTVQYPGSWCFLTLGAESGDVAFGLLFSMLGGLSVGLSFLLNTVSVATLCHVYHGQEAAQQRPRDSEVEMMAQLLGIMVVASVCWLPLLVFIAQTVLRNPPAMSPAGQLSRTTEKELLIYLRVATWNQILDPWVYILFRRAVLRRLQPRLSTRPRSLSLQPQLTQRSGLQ
Sequence of UniProt P51812 (whole entry, looked up): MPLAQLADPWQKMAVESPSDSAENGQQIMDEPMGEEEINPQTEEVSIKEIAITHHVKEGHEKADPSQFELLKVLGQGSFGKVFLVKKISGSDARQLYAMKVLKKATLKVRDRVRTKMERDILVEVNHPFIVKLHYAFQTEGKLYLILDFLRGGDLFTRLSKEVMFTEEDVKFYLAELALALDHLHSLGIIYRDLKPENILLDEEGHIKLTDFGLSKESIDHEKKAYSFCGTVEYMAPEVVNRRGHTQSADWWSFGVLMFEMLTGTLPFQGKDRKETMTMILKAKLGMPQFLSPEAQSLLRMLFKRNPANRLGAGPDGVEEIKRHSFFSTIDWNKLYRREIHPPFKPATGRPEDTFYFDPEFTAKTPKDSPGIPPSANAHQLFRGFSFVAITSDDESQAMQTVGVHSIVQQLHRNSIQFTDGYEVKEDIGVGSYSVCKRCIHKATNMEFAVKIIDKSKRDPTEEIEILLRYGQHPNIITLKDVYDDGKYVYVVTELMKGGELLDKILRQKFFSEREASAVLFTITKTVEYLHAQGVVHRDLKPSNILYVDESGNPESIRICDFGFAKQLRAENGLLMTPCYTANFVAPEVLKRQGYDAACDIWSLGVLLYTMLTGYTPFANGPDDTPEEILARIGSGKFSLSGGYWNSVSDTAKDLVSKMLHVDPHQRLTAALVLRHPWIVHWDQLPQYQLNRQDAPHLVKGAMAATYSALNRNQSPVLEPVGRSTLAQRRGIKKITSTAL

Study 1
Structure (SMILES): NC(N)=NC(=O)c1nc(Cl)c(N2CCCCCC2)nc1N
Effect on: β-arrestin recruitment
Action: agonist
Method: PRESTO-Tango
Tested at: 10 µM
Relative to: untreated
The “fold over basal” was 0.71 (NPY5R (Homo sapiens, UniProt Q15761)).
It gave 0.69 fold for “fold over basal” (TBXA2R (Homo sapiens, UniProt P21731)).
CXCR5 (Homo sapiens, UniProt P32302) — “fold over basal”: 1.03.
It gave 0.62 for “fold over basal” (C-C chemokine receptor type 2, isoform B (CCR2, Homo sapiens, UniProt P41597)).

Study 2
SMILES: CN(C)c1ncnc(-c2ccc3nc(Nc4cc(CN5CCN(C(=O)CC(F)(F)F)CC5)ccn4)[nH]c3c2)c1Cl
Effect on: cell-free assay
Method: competition with immobilised ligand
Tested at: 1 µM
It gave 81% for remaining binding (Ribosomal protein S6 kinase alpha-3, N-terminal kinase domain (RPS6KA3, Homo sapiens, UniProt P51812)).
For STK38 (Homo sapiens, UniProt Q15208): remaining binding read 80%.
For EGFR (Homo sapiens, UniProt P00533, del752-759): remaining binding read 88%.
The remaining binding was 79% (EGFR (Homo sapiens, UniProt P00533, G719S)).
It gave 97% for remaining binding (KIT (Homo sapiens, UniProt P10721, D816V)).
The remaining binding was 63% (NTRK2 (Homo sapiens, UniProt Q16620)).

Study 3
Species: mouse
Sample: microsomes or S9
Tested at: 2 µM
Time: 0.5 h
`CCCc1nc(N(C)Cc2cc(-c3ccccc3)n[nH]2)c2cnn(C)c2n1` gave a remaining compound of 6.61%.
`COC1(c2nc(-c3ccc(Cl)nn3)cs2)CCOCC1` has a remaining compound of 32.7%.
`O=C(O)C1C(c2ccccc2)C(C(=O)O)C1c1ccccc1` (stereo not drawn) has a remaining compound of 65.9%.
With `COc1ccc(N(C)c2cc3n(c(=O)n2)CCc2cc(OC)c(OC)cc2-3)cc1` the remaining compound was 70.2%.
`COc1cc(=O)[nH]cc1C(=O)N1CCCC1c1ccnn1C` (stereo not drawn) has a remaining compound of 82.2%.

Study 4
Structure (SMILES): CS(=O)(=O)CCNCc1ccc(-c2ccc3ncnc(Nc4ccc(OCc5cccc(F)c5)c(Cl)c4)c3c2)o1
Effect on: enzyme activity
Action: inhibitor
Tested at: 0.5 µM
Relative to: control
ARAF (Homo sapiens, UniProt P10398) — remaining activity: 85%.
The remaining activity was 105% (MAP3K5 (Homo sapiens, UniProt Q99683)).
For MERTK (Homo sapiens, UniProt Q12866): remaining activity read 95.4%.
FGFR1 (Homo sapiens, UniProt P11362) — remaining activity: 102%.
LCK (Homo sapiens, UniProt P06239) — remaining activity: 94.2%.
MAP3K14 (Homo sapiens, UniProt Q99558) — remaining activity: 109%.
The remaining activity was 84% (RPS6KA2 (Homo sapiens, UniProt Q15349)).
It gave 94.7% for remaining activity (MAPKAPK2 (Homo sapiens, UniProt P49137)).
It gave 104% for remaining activity (FRK (Homo sapiens, UniProt P42685)).
It gave 97.5% for remaining activity (WEE1 (Homo sapiens, UniProt P30291)).
It gave 105% for remaining activity (TAOK2 (Homo sapiens, UniProt Q9UL54)).
TBK1 (Homo sapiens, UniProt Q9UHD2) — remaining activity: 103%.

Excerpt of the above (study 4):
It gave 97.5% for remaining activity (WEE1 (Homo sapiens, UniProt P30291)).
It gave 105% for remaining activity (TAOK2 (Homo sapiens, UniProt Q9UL54)).
TBK1 (Homo sapiens, UniProt Q9UHD2) — remaining activity: 103%.
